Measurements from different studies.
Numbered parts are unrelated; each lists some results of a single study. Positions count from the first letter of the parent shown.

Block 1
Target: UBE2W UBC core domain (UniProt Q96B02)
Technique: yeast two-hybrid
Medium: yeast
Notes: mostly zero background
Baseline: not given
Direction: higher = stronger interaction
B1: TRIM74 RING domain (UniProt Q86UV6); chain SLLELEDWLQCPICLEVFKESLMLQCGHSYCKGCLVSLSYHLDTKVRCPMCWQVVDGSSSLP
B2: RNF32 RING domain (UniProt Q9H0A6); chain VQALRRETHECSICLAPLSAAGGQRVGAGRRSREMALLSCSHVFHHACLLALEEFSVGDRPPFHACPLCRSCYQKKILEC
B3: TRIM34 RING domain (UniProt Q9BYJ4); chain ILLNVQEEVTCPICLELLTEPLSLDCGHSLCRACITVSNKEAVTSMGGKSSCPVCGISYSFEHLQA
B4: UBE4B RING domain (UniProt O95155); chain KNARAEIDYSDAPDEFRDPLMDTLMTDPVRLPSGTIMDRSIILRHLLNSPTDPFNRQTLTESMLEPVPELKEQIQAWMREKQNSDH
B5: NHLRC1 RING domain (UniProt Q6VVB1); chain MREAEISLLECKVCFEKFGHRQQRRPRNLSCGHVVCLACVAALAHPRTLALECPFCRRACRGCDTSD
B6: RNF10 RING domain (UniProt Q8N5U6); chain VRICSHEVPSCPICLYPPTAAKITRCGHIFCWACILHYLSLSEKTWSKCPICYSSVHKKDLKS
B7: MARCHF2 RING domain (UniProt Q9P0N8); chain RLLSTVIRALDTPSDGPFCRICHEGANGECLLSPCGCTGTLGAVHKSCLEKWLSSSNTSYCELCHTEFAVEKRPRPLTEWL
Residues (chain): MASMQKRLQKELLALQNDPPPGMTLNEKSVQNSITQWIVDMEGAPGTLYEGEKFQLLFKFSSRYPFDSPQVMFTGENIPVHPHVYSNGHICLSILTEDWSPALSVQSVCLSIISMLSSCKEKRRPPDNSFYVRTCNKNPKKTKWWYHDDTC
Sequence | lacZ reporter activity
B1 (TRIM74 RING domain) | 0
B2 (RNF32 RING domain) | 0
B3 (TRIM34 RING domain) | 0
B4 (UBE4B RING domain) | 0
B5 (NHLRC1 RING domain) | 0
B6 (RNF10 RING domain) | 0
B7 (MARCHF2 RING domain) | 0
EDVLSKDAGECAICLEELQQGDTIARLPCLCIYHKGCIDEWFEVNRSCPEHPSD (ZNRF2 RING domain (UniProt Q8NHG8)) | 0

Block 2
Target: HLA class I histocompatibility antigen, A alpha chain, allele A*25:01 (Homo sapiens, UniProt P04439)
Read-out: peptide-MHC binding
Molecule type: peptide
Tested at: concentration not given
Sequence | binding
CERYGFPAS | inactive
GIVCYNEEV | inactive
FPDGKPFTL | inactive
AILAGEHKC | inactive
SSLLWGFYL | inactive
LPPVVPPLI | inactive
QAFEAGIDF | inactive
ETLDVFGPI | active

Block 3
Target: CCNB1, cyclin fold, Cln2 fusion (human)
Technique: yeast growth competition, sequencing
Medium: yeast
Notes: strong parent motif
Baseline: not given
Direction: higher = stronger binding
Parent: viral docking peptide; KGVKRKLFAEDSS; partner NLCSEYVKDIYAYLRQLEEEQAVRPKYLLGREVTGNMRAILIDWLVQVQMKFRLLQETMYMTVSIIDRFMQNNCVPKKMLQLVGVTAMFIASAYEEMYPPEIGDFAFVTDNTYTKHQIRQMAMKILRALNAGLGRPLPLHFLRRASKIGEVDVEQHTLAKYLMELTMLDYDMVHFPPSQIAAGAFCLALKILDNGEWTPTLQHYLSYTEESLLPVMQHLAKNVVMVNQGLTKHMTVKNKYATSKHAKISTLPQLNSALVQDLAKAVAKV
Variant | normalised enrichment score
K4L | 0.72
L7D | 0.184
V3Y | 0.591
K6V | 0.976
D11H | 1.32
L7T | 0.377
L7E | 0.343
R5I | 0.926

Further values, each from its own experiment
SMILES | cell line | technique | tested at | quantity | value
COC(=O)c1ccc(NC(=O)C2CCN(c3c(C#N)cnc4ccccc34)CC2)cc1 | HEK-293T-ACE2-TMPRSS2 | cell count | concentration not given | viability | 77%

A few entries again (block 1):
Sequence | lacZ reporter activity
B4 (UBE4B RING domain) | 0
B5 (NHLRC1 RING domain) | 0
